Experimental data collected from several papers.
Compare with care: the assays were run in different laboratories. ± marks the error that the study gave.

| SMILES | test system | setting | tissue uptake |
| --- | --- | --- | --- |
| O=C(NCC1OC2CCC=CCCC2O1)c1ccc(COCCOCCOCC[18F])cc1 (centres unmarked) | healthy female BALB/c nude mice, blood | intravenous, 7.4 MBq per mouse, 15 min | 4.9 ± 0.2 %ID/g |
| CCCC[C@H](NC(=O)CCCCCCCNC(=O)CN1CCN(CC(=O)O)CCN(CC(=O)O)CC1)C(=O)N[C@H]1CC(=O)NCCCC[C@@H](C(N)=O)NC(=O)[C@H](Cc2c[nH]c3ccccc23)NC(=O)[C@H](CCCNC(=N)N)NC(=O)[C@@H](Cc2ccccc2)NC(=O)[C@H](Cc2c[nH]cn2)NC1=O [fluorine-18 labelled] | C57 mice B16-F10 melanoma, kidneys | intravenous, 0.37 MBq, 1 h | 6.37 ± 0.68 %ID/g |
| COc1ccc(Nc2nc(Nc3ccc(OCCOCC[18F])cc3)ncc2Br)cc1 | ICR mice, S180 tumour, intestine | intravenous, 370 kBq, 30 min | 3.3 ± 0.09 %ID |
| Cc1cc(C)n(CCN(CCN)CCCCCCNC(=O)[C@@H](N)Cc2c[nH]cn2)n1.[99Tc+].[C-]#[O+].[C-]#[O+].[C-]#[O+] | BALB/c nude mice, A549 xenograft, kidney | intravenous, 4 h | 8.8 ± 0.46 %IA/g |
| CCCC[C@H](NC(=O)CNC(=O)CNC(=O)[C@H](CCCCNC(=O)[C@H](CC(=O)O)NC(=O)C(C)c1ccc(CC(C)C)cc1)NC(=O)CN1CCN(CC(=O)O)CCN(CC(=O)O)CCN(CC(=O)O)CC1)C(=O)N[C@H]1CC(=O)NCCCC[C@@H](C(N)=O)NC(=O)[C@H](Cc2c[nH]c3ccccc23)NC(=O)[C@H](CCCNC(=N)N)NC(=O)[C@@H](Cc2ccccc2)NC(=O)[C@H](Cc2c[nH]cn2)NC1=O (some centres unmarked) [lutetium-177 labelled] | C57 mice, tumour-bearing, lung | intravenous, 0.037 MBq, 24 h | 0.38 ± 0.27 %ID/g |
| CC(C)C[C@H](NC(=O)[C@@H](CCCCNC(=O)[C@@H](Cc1ccccc1)NC(=O)CCCCCCCNC(=O)CN1CCN(CC(=O)O)CCN(CC(=O)O)CCN(CC(=O)O)CC1)NC(=O)[C@H](Cc1ccc(O)cc1)NC(=O)[C@H](CO)NC(=O)[C@H](Cc1c[nH]c2ccccc12)NC(=O)[C@H](Cc1c[nH]cn1)NC(=O)[C@@H]1CCC(=O)N1)C(=O)N[C@@H](CCCNC(=N)N)C(=O)N1CCC[C@H]1C(=O)NCC(N)=O [indium-111 labelled] | male athymic nude mice, DU-145 prostate cancer xenograft, blood | intravenous, 0.037 MBq, 2 h | 0.15 ± 0.11 %ID/g |
| CCCC[C@H](NC(=O)CNC(=O)CNC(=O)[C@H](CCCCNC(=O)[C@H](CC(N)=O)NC(=O)C(C)c1ccc(CC(C)C)cc1)NC(=O)CN1CCN(CC(=O)O)CCN(CC(=O)O)CCN(CC(=O)O)CC1)C(=O)N[C@H]1CC(=O)NCCCC[C@@H](C(N)=O)NC(=O)[C@H](Cc2c[nH]c3ccccc23)NC(=O)[C@H](CCCNC(=N)N)NC(=O)[C@@H](Cc2ccccc2)NC(=O)[C@H](Cc2c[nH]cn2)NC1=O (some centres unmarked) [lutetium-177 labelled] | C57 mice, tumour-bearing, blood | 2 h | 0.47 ± 0.1 %ID/g |
| O=C(NCC1OC2CCC=CCCC2O1)c1ccc([18F])nc1 (centres unmarked) | female BALB/c nude mice, LS174T tumour, liver | intravenous, 60 min, together with: unmodified CC49 24 h before | 1.9 ± 0.5 %ID/g |

Excerpt of the above:
| SMILES | test system | setting | tissue uptake |
| --- | --- | --- | --- |
| O=C(NCC1OC2CCC=CCCC2O1)c1ccc(COCCOCCOCC[18F])cc1 (centres unmarked) | healthy female BALB/c nude mice, blood | intravenous, 7.4 MBq per mouse, 15 min | 4.9 ± 0.2 %ID/g |
